Results from different studies.
Each line is one published result; not all experiments were run side by side. ± gives the spread as reported. In brackets after ≈: the same amount, converted by molar mass.
Organism: Leishmania donovani

The episterol level of `C[C@@H](c1ncncc1F)[C@](O)(Cn1cncn1)c1ccc(F)cc1F` is reported as 0.18 ± 0.06 (LC-MS/MS; LV82 promastigote; 50 µM, 24 h, with fecosterol, 4-methylzymosterol, unit not given; relative to: DMSO).
With `C#CCn1cc(/C=C2\SC(=S)NC2=O)c2cc([N+](=O)[O-])ccc21` the IC50 was greater than 10 µM (parasite growth, resazurin; THP-1; 24 h, intracellular, amastigote).
With `c1ccc2c(NCCCn3ccnc3)ncnc2c1` the infection inhibition was 65% (J774.2 macrophages; IC25, 240 h, day 10; relative to: untreated).
The IC50 of `O=C1CSC(=S)N1/N=C/c1c[nH]c2ccc([N+](=O)[O-])cc12` is reported as greater than 10 µM (parasite growth, resazurin; THP-1; 24 h, intracellular, amastigote).
For `CCCCCCCCCCCCCCCCOP(=O)([O-])OCC[N+](C)(C)C`, the EC50 was 0.51 µM (human PBMC, DD8).
With `O=Cc1c[nH]c2ccc([N+](=O)[O-])cc12` the IC50 was greater than 10 µM (parasite growth, resazurin; THP-1; 72 h, intracellular, amastigote).
`Cn1c([N+](=O)[O-])cnc1COc1ccc(S(C)(=O)=O)cc1` has an EC50 of 5.3 µM (parasite growth; mouse Macrophage; 72 h, intracellular, amastigote).
`C[C@@H]1[C@H](O)[C@@H](C)/C=C/C=C/C=C/C=C/C=C/C=C/C=C/[C@H](O[C@@H]2O[C@H](C)[C@@H](O)[C@H](N)[C@@H]2O)C[C@@H]2O[C@](O)(C[C@@H](O)C[C@@H](O)[C@H](O)CC[C@@H](O)C[C@@H](O)CC(=O)O[C@H]1C)C[C@H](O)[C@H]2C(=O)O` has an IC90 of 1.74 mg/L (≈ 1.88 µM) (parasite growth; THP-1; intracellular, amastigote).
With `CCCCCCCCCCCCCCCCOP(=O)([O-])OCC[N+](C)(C)C` the EC99 was 52.2 µM (parasite growth; mouse peritoneal macrophages, LV9; intracellular amastigotes).
`Clc1ccccc1C(c1ccccc1)(c1ccccc1)n1ccnc1` gave a fecosterol level of 0.025 ± 0.013 (LC-MS/MS; LV82 promastigote; 20 µM, 24 h, with episterol, 4-methylzymosterol, unit not given; relative to: DMSO).
`N=C(N)c1ccc(OCCCCCOc2ccc(C(=N)N)cc2)cc1` gave an IC50 of 3.5 µM (viability, Alamar blue; axenic amastigote; 72 h, pH 5.5, 37 °C).
For `CSc1ccc(OCc2ncc([N+](=O)[O-])n2C)cc1`, the EC50 was greater than 50 µM (intracellular amastigotes in macrophages, LdBOB wild type).
`Cc1ccc(Cn2cc(/C=C3\SC(=S)NC3=O)c3cc([N+](=O)[O-])ccc32)cc1` gave an IC50 of 5.91 µM (parasite growth, resazurin; THP-1; 72 h, intracellular, amastigote).
The IC50 of `C[C@@H]1N[C@H](CCCCCCCCCCc2cc(CCCCCCCCCC[C@@H]3CC[C@H](O)[C@@H](C)N3)c3[n+](c2)CCC3)CC[C@H]1O` is reported as 0.91 mg/L (parasite growth, resazurin; 72 h, promastigote).
With `C#CCn1cc(/C=N/N2C(=O)CSC2=S)c2cc([N+](=O)[O-])ccc21` the IC50 was greater than 10 µM (parasite growth, resazurin; THP-1; 24 h, intracellular, amastigote).
`Cn1c([N+](=O)[O-])cnc1COc1ccc([S+](C)[O-])cc1` (stereo not shown) has an EC99 of 41.2 µM (parasite growth; mouse peritoneal macrophages, LV9; intracellular amastigotes).

Excerpt of the above:
`Cn1c([N+](=O)[O-])cnc1COc1ccc([S+](C)[O-])cc1` (stereo not shown) has an EC99 of 41.2 µM (parasite growth; mouse peritoneal macrophages, LV9; intracellular amastigotes).
The IC50 of `C[C@@H]1N[C@H](CCCCCCCCCCc2cc(CCCCCCCCCC[C@@H]3CC[C@H](O)[C@@H](C)N3)c3[n+](c2)CCC3)CC[C@H]1O` is reported as 0.91 mg/L (parasite growth, resazurin; 72 h, promastigote).
